Measured values pooled from the literature.
A part holds a random share of what one study measured.

Sample 1
Target: Interferon regulatory factor 5, full length, phosphomimetic (IRF5, Homo sapiens, UniProt Q13568-2, residues 1-514, K96S/S451D/S453D/S456D/S462D)
Method: protein-binding microarray
Molecule type: double-stranded DNA, one strand shown
Sample: in vitro
Tested at: 250 nM
Notes: 60-bp whole probe
With: salmon DNA 0.4 mg/ml
Relative to: random background probes
Direction: higher = stronger binding
Shared flanks, not repeated: GCCTAGCAC … GTCTTGATTCGCTTGACGCTGCTG
Sequence | log fluorescence [z-score]
TTAGAACTGTGGACTGGATTAGTGCTA | -0.339
TCCATTTTGTGTTTTCATTTGTGCTAG | 1.84
AGTGTTACCCCTCATCAACCAGTGCTA | -0.00863
TTAGGACTGTTTTTCCTTTAGTGCTAG | 0.392
TTAGAACTGGGGTATCGGTTAGTGCTA | 2.65
AAGGGTCTCTTGTTCTCTCTGTGCTAG | -0.226
TTAGGTTTCGGTCTCGGTCAGTGCTAG | 10.2
TCACTTTTGCTTTACTGACTGTGCTAG | 2.85
TGAGGACTGCTACTGCTTTAGTGCTAG | -0.437
TCATATTTGTTTCCATTACTGTGCTAG | 1.96
TTAGACCTCAGTTTCGATTAGTGCTAG | 9.52
GACGGTCCCGGTCTCGGGACGTGCTAG | -0.231
TGGAGAGTAGCTTTCTGAGGGTGCTAG | 0.152
GACGATATCAGACCGGAGACGTGCTAG | 0.383
TTAGGTATTGACTTTCGGTTAGTGCTA | 9.31
GACGGTTCCGGGACTGGGGACGTGCTA | -0.0319

Sample 2
Target: TAR DNA-binding protein 43, full length, His tag (TARDBP, Homo sapiens, UniProt Q13148, residues 1-414)
Method: RNA Bind-n-Seq
Molecule type: RNA
Sample: in vitro
Tested at: 20 nM
Notes: 6-mer, flanks averaged, single round
With: 150 mM LiCl
Relative to: input library
Direction: higher = stronger binding
Sequence | 6-mer enrichment (R)
GCGCCA | 0.964
AUACAC | 0.864
AGCAUU | 0.859
GAGUAG | 1.1
ACUGGA | 0.88
GUGAGA | 1.2
CGACUC | 0.819
AUUACG | 0.872
AACCUU | 0.895
ACUGAU | 0.837
GACAUU | 0.903
CGUGGA | 1.02
AGUCCU | 0.857
ACUAUU | 0.95
UACGCC | 0.896
UAAUUA | 1.08
CUUCCG | 0.831
ACAUGA | 0.847
ACAUAG | 0.843

Sample 3
Target: Histone acetyltransferase KAT6A, winged helix 2, GST fusion (KAT6A, Homo sapiens, UniProt Q92794, residues 85-181)
Method: protein binding microarray
Molecule type: double-stranded DNA, one strand shown
Sample: in vitro
Tested at: not given
Notes: 8-mer, flanks averaged, mean of 2 arrays, mostly near background
Relative to: not given
Direction: higher = stronger binding
Construct (chain): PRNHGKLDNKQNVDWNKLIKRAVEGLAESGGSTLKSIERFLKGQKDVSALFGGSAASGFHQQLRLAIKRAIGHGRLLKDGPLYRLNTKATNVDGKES
Sequence | E-score
CCTGTAAC | -0.09
AGAGAGTC | -0.21
ATGGGGAC | 0.00484
ATGTGTTC | 0.0427
GACCCACA | 0.128
GGCGCCAA | 0.0566
ACAAGAGG | -0.0736
CCTCTCTC | -0.16
CCGGCACA | 0.153
ACTGCAGG | -0.0284
ATGCCACG | -0.0357
GTCTGTGA | 0.0723
CTTATTAC | -0.0903
ACAGCCCC | -0.144
AACATGCC | -0.0669
TAGCCATA | -0.125
CAGGTGGA | 0.052
AATGATCC | -0.0688

Sample 4
Target: RING finger protein unkempt homolog, zinc fingers 1-6, GST-SBP tag (UNK, Homo sapiens, UniProt Q9C0B0, residues 30-357)
Sequence of UniProt Q9C0B0 (30-357, looked up): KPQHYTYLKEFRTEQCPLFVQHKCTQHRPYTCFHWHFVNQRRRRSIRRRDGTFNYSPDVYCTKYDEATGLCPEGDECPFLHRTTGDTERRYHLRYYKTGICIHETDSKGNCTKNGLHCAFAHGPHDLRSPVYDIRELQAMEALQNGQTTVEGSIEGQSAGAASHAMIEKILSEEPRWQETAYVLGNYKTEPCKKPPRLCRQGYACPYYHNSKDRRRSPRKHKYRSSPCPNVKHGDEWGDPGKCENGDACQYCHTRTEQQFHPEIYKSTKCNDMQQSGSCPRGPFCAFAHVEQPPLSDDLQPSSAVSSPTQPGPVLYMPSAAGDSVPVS
Method: RNA Bind-n-Seq
Molecule type: RNA
Sample: in vitro
Tested at: not given
Notes: RNA with constant flanks, human-mouse chimeric sites, ends assumed
Relative to: input RNA pool
Direction: higher = stronger binding
Shared flanks, not repeated: GGGAGUUCUACAGUCCGACGAUC … CAACAGAGGAUUGAGCAUCA
Sequence | bound/input enrichment
CAGUCCCCGUGUCCCAGUGCAGGACGAUGUGAACAAAAACUCAAAGCGGACCCUCUAUUGUAGUUCUUGAUUCUCGAAAUGUGCUAUUGUUUUUAAACUUUUUUUUUUUUUUUUUAAAGA | 0.59 ratio
GGUGGGGUGGUCAUUGCCGUUUGAGCUGCUGAUUUUCAUGAGUCGCCUUCAAAACUCUCGUGUAGGGUUGACAAUGUGGGGGGGUGGGGGAUCCAGCUAUUUUUUUUUCCCCAGCCCCCA | 2.96 ratio
ACAGUUAUACACUGUUGUUUCAUUUUCAUAUAUUCUUGUAGUGUCUGCUUGCCUGUGACUUCUGGUAAAAUAAAAUAAGCCUUUGAAAAUAUUUUAGCAUGGUAUUUUUCUAAAAAUAAA | 1.16 ratio
UUAAACACCAAGCUGAUGGACUCUGAUGGCCUCCAUCUCUCAGGCACGUUUGCCUUCUCUUAGUCCCUGUUUUCGGGAUGUUAUGAAUCUCAGUACUGUGGUUUGAAAGCACCAGCUUUG | 0.177 ratio
CAGCCUCAGAGCCCUGACUUCCUGGAUAUUACCAACCCUAAAGCGGUAUUAGAAAAUGCAUUGAGAAACUUUGCCUGUCUGACGACUGGAGAUGUGAUUGCUAUCAACUACAAUGAGAAG | 0.477 ratio
AUAUUUCAUAUUGCAAAGAUGUUUACAAGUAUUUUAAUUUAAGUUCAGUGAACUUUUUUGUAGCUGGGUUAAAUCUUUUUAUUUUUAUAUGGCCUUAUGGCAAAGAAACACUGUAUUUUU | 1.19 ratio
AGAUUCCCCCUCCUGAGGCCUUCUCCAAAGUUGGAGUCUCUUACAGAUGCCUCAUCCCCUGUUAGCGUUUUAGUUUGGACCACCCAGCCUUGGACAAUUCCCGCCAACCAGGCAAUUUGC | 1.98 ratio

Sample 5
Target: PABPC1L2, full length, GST fusion (mouse, UniProt A0ABA7IW68)
Method: RNAcompete
Molecule type: RNA
Sample: in vitro
Tested at: 20 nM
Notes: 7-mer, probes averaged, single round
Relative to: mean of 7-mers
Direction: higher = stronger binding
Construct (chain): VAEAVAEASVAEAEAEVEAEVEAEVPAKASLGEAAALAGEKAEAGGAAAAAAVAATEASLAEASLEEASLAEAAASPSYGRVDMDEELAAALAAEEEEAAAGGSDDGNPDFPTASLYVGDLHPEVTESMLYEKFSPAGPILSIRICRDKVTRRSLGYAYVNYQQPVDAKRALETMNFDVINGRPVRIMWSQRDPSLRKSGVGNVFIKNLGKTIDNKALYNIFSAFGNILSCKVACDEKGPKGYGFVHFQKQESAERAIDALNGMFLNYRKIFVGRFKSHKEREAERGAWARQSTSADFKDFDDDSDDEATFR
Sequence | 7-mer Z-score
AUUACGU | -0.0881
UGCCCUC | -0.324
UAAGGUC | -0.133
CGCGUCA | -0.139
UUAAUUC | -0.175
UUGACCA | 0.0968
CACCAGU | -0.195
GACAAAG | 0.591
GAGCGAU | -0.0337
GCUCCAA | -0.133
GUCUUUU | -0.219
CUCAUUC | -0.396
ACAGGAG | 0.209
AUUGUUG | -0.32
UCUCGGC | -0.206
UUGCGGA | -0.0699
GAAACGG | 0.34
CAAAGCU | 0.0787
CCCGGAC | -0.287
CUGGUCU | -0.197
ACGCCGG | -0.237
UUACGAA | 0.0515

Sample 6
Target: Ras GTPase-activating protein-binding protein 1, full length (G3BP1, Homo sapiens, UniProt Q13283)
Sequence of UniProt Q13283 (whole entry, looked up): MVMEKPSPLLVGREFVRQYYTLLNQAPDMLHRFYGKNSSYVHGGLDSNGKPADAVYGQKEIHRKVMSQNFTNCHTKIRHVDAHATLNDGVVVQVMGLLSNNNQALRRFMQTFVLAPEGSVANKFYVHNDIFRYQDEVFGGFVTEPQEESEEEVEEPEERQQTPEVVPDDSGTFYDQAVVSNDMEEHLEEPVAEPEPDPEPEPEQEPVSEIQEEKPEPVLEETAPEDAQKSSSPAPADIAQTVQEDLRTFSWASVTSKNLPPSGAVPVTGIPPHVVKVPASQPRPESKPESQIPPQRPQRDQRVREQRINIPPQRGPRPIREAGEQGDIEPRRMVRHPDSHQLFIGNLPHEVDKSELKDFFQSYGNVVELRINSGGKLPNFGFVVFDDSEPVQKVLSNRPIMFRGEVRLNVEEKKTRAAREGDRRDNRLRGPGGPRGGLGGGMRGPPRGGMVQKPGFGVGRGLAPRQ
Method: RNA Bind-n-Seq
Molecule type: RNA
Sample: in vitro
Tested at: 200 nM
Notes: whole 134-nt RNA, ends assumed
With: 150 mM KCl
Relative to: input library
Direction: higher = stronger binding
Shared flanks, not repeated: GGGAGUUCUACAGUCCGACGAUC … UGGAAUUCUCGGGUGUCAAGG
Sequence | log2 enrichment
AAGUCCUGUGCUACACAUCGUAUGUACCGAAUCGGGAGGGUUUGGGAAAAAAAGGGAAAGUAUUAUGUUACGCCGUUCGGAUCUGCACUU | -0.0595
CUCAAGUCCUGUGCUACACAUCGUAUGUACCGAAUCGGGAAGGGGAAGGGAAGGAAAGUAUUAUGUUACGCCGUUCGGAUCUGCACUUCC | -0.153
UGGCCCUGGUGGCAUGCGGGGAGGAAGAGGUGGCCUCAUGGAUCGUGGUGGUCCCGGUGGAAUGUUCAGAGGUGGCCGUGGUAGAGACAG | 0.0992
CACAGACAACACGCACCCACACAGACACAGAGGGAAGGGGUUGGGAUGGGGACAGGGAGCACAGCAGGGCGGGGUAGGACCCCAGCCCCU | 1.75
UGGUCCUGGUGGCAUGCGGGGAGGAAGAGGUGGCCUCAUGGAUCGUGGUGGUCCCGGUGGAAUGUUCAGAGGUGGCCGUGGUGGAGACAG | 0.318
UCCUGUGCUACACAUCGUAUGUACCGAAUCGGGGAAAAAGGGGAAAAAGGGAAAAAGGGAAAGUAUUAUGUUACGCCGUUCGGAUCUGCA | 0.0857
CCUGUGCUACACAUCGUAUGUACCGAAUCGGGGUUUUUUGGUUUUUUGGGGUUUUUUGGGAAAGUAUUAUGUUACGCCGUUCGGAUCUGC | -0.74
AAGUCCUGUGCUACACAUCGUAUGUACCGAAUCGGGAAAAGGGGAAAAGGAAAAGGAAAGUAUUAUGUUACGCCGUUCGGAUCUGCACUU | -0.932
UGUGCUACACAUCGUAUGUACCGAAUCGGGGUUUUUUUGGGGAAAAAGGGGAAAAAAAGGGGAAAGUAUUAUGUUACGCCGUUCGGAUCU | -0.449
UGGAACAGCAGCUGCCACUCAGGCGUAAUUCCCACCUAGAGGAGAGUUUCACAUCCACCGAAGAAUCUUCCGAAGAAAAUGUCAACUUUU | 0.473
CAAGUCCUGUGCUACACAUCGUAUGUACCGAAUCGGGGAAGGGGAAGGGGAAGGGAAAGUAUUAUGUUACGCCGUUCGGAUCUGCACUUC | 0.994
UGUGCUACACAUCGUAUGUACCGAAUCGGGGUUUUUUUGGGGAAAAAGGGGUUUUUUUGGGGAAAGUAUUAUGUUACGCCGUUCGGAUCU | -0.321
AGUGACCAUUUUAGUUAAAUUUUGUUCCUCUUCCCCCUUUUCACUUUCCUGGAAGAUCGAUGUCCCGAUCAGGAAGGUAGAGAGUUUUCC | -0.168
GCAGGAAGUAAAAACAAAUGGAAAUGCUUCGGAUAGUGGCAGGGGUGGGGGUUGCUAAAGAAAGGGUGGGAUGGGAGUGGGUAAAGAGUU | 0.816

Further values, each from its own experiment
Molecule | target | test | system | conditions | how to read | quantity | value
PhoQ, residues 284 288 289 292 302 303 TLSLKA | PhoP, residues 12 14 15 18 19 AQCLL (Escherichia coli, UniProt P23836) | Sort-seq, refers to: YFP reporter | E. coli | PhoQ-PhoP variant library, with: 10 µM Mg2+ | relative to: high Mg2+ state, higher = stronger signaling | fold induction | 0.295

Repeated from above (further values, each from its own experiment):
Molecule | target | test | system | conditions | how to read | quantity | value
PhoQ, residues 284 288 289 292 302 303 TLSLKA | PhoP, residues 12 14 15 18 19 AQCLL (Escherichia coli, UniProt P23836) | Sort-seq, refers to: YFP reporter | E. coli | PhoQ-PhoP variant library, with: 10 µM Mg2+ | relative to: high Mg2+ state, higher = stronger signaling | fold induction | 0.295
